Published values pooled from the literature.
Numbers after ± are the reported error.
Target: Cytochrome P450 2D6 (CYP2D6, Homo sapiens, UniProt P10635)
Chain of UniProt P10635 (whole entry, looked up): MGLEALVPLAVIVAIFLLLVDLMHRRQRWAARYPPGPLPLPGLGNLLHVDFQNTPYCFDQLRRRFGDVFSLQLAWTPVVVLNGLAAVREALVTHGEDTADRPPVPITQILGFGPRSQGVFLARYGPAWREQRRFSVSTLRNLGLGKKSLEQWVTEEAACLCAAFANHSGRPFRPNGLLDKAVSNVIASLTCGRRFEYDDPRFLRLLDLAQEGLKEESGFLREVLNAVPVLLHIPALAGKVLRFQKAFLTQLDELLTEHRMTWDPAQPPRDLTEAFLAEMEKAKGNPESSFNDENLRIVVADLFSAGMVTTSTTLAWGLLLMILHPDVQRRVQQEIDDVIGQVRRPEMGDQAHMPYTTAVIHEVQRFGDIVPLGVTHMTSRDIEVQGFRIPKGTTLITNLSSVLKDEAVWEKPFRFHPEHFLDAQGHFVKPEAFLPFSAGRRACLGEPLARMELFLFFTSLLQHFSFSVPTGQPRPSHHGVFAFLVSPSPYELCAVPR

| SMILES | assay | system | setting | IC50 [µM] |
| --- | --- | --- | --- | --- |
| COc1ccc(F)cc1S(=O)(=O)Nc1cnc2c(c1)C(=O)NCCO2 | enzyme activity, inhibitor | human, liver microsomes | with preincubation | > 100 |
| C[C@H](NCc1ccc(-c2ccc(C(F)(F)F)cc2)cc1)C(N)=O | enzyme activity, inhibitor, luciferase | – | pH 7.4 | > 10 |
| Cc1ccc2nc(C)c(C(=O)NCc3cccs3)n2c1 | inhibitor | – | – | 3.8 |
| Cc1ccc(N2CC3CCC(C2)N3C)cc1C(=O)N[C@H](C)c1cc(-c2cnn(C)c2)nc2ccccc12 | enzyme activity | – | – | > 50 |
| CCCCCc1cc(O)c2c(c1)OC(C)(C)C1CCC(C(=O)OC3OC(C(=O)O)C(O)C(O)C3O)=CC21 (stereo not shown) | inhibitor | – | 30 min preincubation without NADPH | 8.1 ± 1.1 |
| CCc1ccc([C@@H]2C[C@H](C(F)(F)F)n3ncc(C(=O)NCc4ccc(OC)cc4)c3N2)cc1 | inhibitor | – | – | 7.6 |
| CCn1ccc(-c2cc(-c3cnn(C)c3)cc([C@@H](C)NC(=O)c3cc(OCCN(C)C)ccc3C)c2)n1 | enzyme activity, inhibitor | pooled human liver microsomes | 10 (unit not given) | > 50 |
| COc1ccc2nc(C)cc(OCC(=O)Nc3ccccc3OC)c2c1 | inhibitor | – | – | 32 |
| C(#Cc1cncc(OC[C@@H]2CCN2)c1)c1ccccc1 | enzyme activity, inhibitor, fluorescence | – | – | 143 |
| c1ccc(C2(CCNC3CCC4(SCCS4)c4ccccc43)CCOC3(CCCC3)C2)nc1 (stereo not shown) | enzyme activity, inhibitor | human, liver microsomes | – | 3.24 |

For quick reference, copied from above:
| SMILES | assay | system | setting | IC50 [µM] |
| --- | --- | --- | --- | --- |
| C(#Cc1cncc(OC[C@@H]2CCN2)c1)c1ccccc1 | enzyme activity, inhibitor, fluorescence | – | – | 143 |
| CCn1ccc(-c2cc(-c3cnn(C)c3)cc([C@@H](C)NC(=O)c3cc(OCCN(C)C)ccc3C)c2)n1 | enzyme activity, inhibitor | pooled human liver microsomes | 10 (unit not given) | > 50 |
